{"data": "Experimental data from different studies", "note": "Protocols differ between the studies behind these lines. ± marks the error that the study gave."}
{"Structure (SMILES)": "Cn1cc(-c2nc(N[C@@H]3CCCC[C@@H]3N)c(F)c3c2C(=O)NC3)cn1", "test": "measured: Melaena", "test system": "patients with relapsed or refractory AML", "conditions": "oral, dose not given, all doses", "measurement": "hemorrhagic adverse events", "value": "7%"}
{"Structure (SMILES)": "Cc1noc(C)c1Cn1cc(N2C(=O)CN(Cc3cccc(O)c3)C2=O)cn1", "test system": "CD-1 mouse, male, bone marrow", "conditions": "2000 mg/kg/day, 24 h", "measurement": "PCE proportion", "value": "53.6%"}
{"Structure (SMILES)": "O=C(Nc1ccccc1)C1CCN(C(=O)Oc2cccnc2)CC1", "test system": "healthy women", "conditions": "oral, 100 mg, 9 days", "measurement": "adverse event Malaise", "value": "0%"}
{"Structure (SMILES)": "CO[C@H]1C[C@@H]2CC[C@@H](C)[C@@](O)(O2)C(=O)C(=O)N2CCCC[C@H]2C(=O)O[C@H]([C@H](C)C[C@@H]2CC[C@@H](OC(=O)NCCOCCOCCOCCOCCOCCOCCOCCOCCC(=O)N3CCc4cc(Cn5nc(-c6ccc7oc(N)nc7c6)c6c(N)ncnc65)ccc4C3)[C@H](OC)C2)C[C@@H](O)[C@H](C)/C=C(\\C)[C@@H](O)[C@@H](OC)C(=O)[C@H](C)C[C@H](C)/C=C/C=C/C=C/1C", "test system": "patients with advanced solid tumours", "conditions": "intravenous, dose not given, any grade", "measurement": "incidence of fatigue TRAE", "value": "42%"}
{"Structure (SMILES)": "Cc1nc(Nc2ncc(C(=O)Nc3c(C)cccc3Cl)s2)cc(N2CCN(CCO)CC2)n1", "test system": "human", "conditions": "oral, 100 mg", "measurement": "deaths", "value": "0%"}
{"Structure (SMILES)": "NC(=O)[C@H]1CCN(c2ncnc(N)c2F)C[C@@H]1N1CCC[C@@H](Nc2cc(Cl)cc(C(F)(F)F)c2)C1=O", "test system": "B-cell malignancy patients", "conditions": "oral, 246 mg twice daily, dose", "measurement": "grade ≥3 leukocytosis", "value": "0%"}
{"Structure (SMILES)": "CCC[C@@](N)(CO)CCc1ccc(OCCCCCC(C)C)cc1", "test system": "male hound dog, plasma", "conditions": "oral, 20 mg/kg, capsule, fasted, median", "measurement": "Tmax", "value": "6 h"}
{"Structure (SMILES)": "Cc1cn([C@H]2O[C@@H](CO[P@@](=O)(N[C@@H](C)C(=O)OC(C)C)Oc3ccccc3)[C@H](O)[C@H]2F)c(=O)[nH]c1=O", "test": "measured: grade 1/2", "test system": "human", "conditions": "50 mg", "measurement": "patients with ALT/AST elevation", "value": "0%"}
{"Structure (SMILES)": "COc1ccnc(C(=O)N[C@H]2COC(=O)[C@H](Cc3ccccc3)[C@@H](OC(=O)C(C)C)[C@H](C)OC2=O)c1OCOC(=O)C(C)C", "test": "carcinogenicity", "test system": "mouse", "conditions": "18 month, highest dose tested", "measurement": "NOAEL", "value": "32.1 mg/kg/day"}
{"Structure (SMILES)": "CC(C)C[C@H](NC(=O)[C@H](CCCCN)NC(=O)OCC1c2ccccc2-c2ccccc21)C(=O)N[C@H](C(=O)N[C@@H](Cc1ccccc1)C(=O)N[C@@H](Cc1ccccc1)C(=O)N[C@@H](CCCCN)C(=O)NCC(=O)N[C@@H](Cc1ccccc1)C(=O)N[C@@H](C)C(=O)N[C@@H](Cc1c[nH]c2ccccc12)C(=O)N[C@@H](CC(N)=O)C(=O)N[C@H](C(=O)N[C@H]1CSSC[C@@H](C(=O)N[C@@H](Cc2c[nH]cn2)C(=O)N[C@@H](CCCNC(=N)N)C(=O)N[C@@H](CCCNC(=N)N)C(=O)N[C@@H](C)C(=O)N[C@@H](CC(N)=O)C(N)=O)NC(=O)[C@H](C(C)C)NC(=O)[C@H](CCCNC(=N)N)NC(=O)[C@H](C(C)C)NC(=O)CNC(=O)[C@H](CC(N)=O)NC(=O)[C@H](CCCNC(=N)N)NC(=O)[C@H](Cc2ccc(O)cc2)NC(=O)[C@H](C(C)C)NC1=O)C(C)C)C(C)C", "test system": "ICR mouse, blood", "conditions": "intramammary, 10 mg/kg, day 5, 3 d dosing", "measurement": "MCH", "value": "13.7 ± 0.15 pg"}
{"Structure (SMILES)": "COc1cc2c(Oc3ccc4[nH]c(C)cc4c3F)ccnc2cc1OCC1(N)CC1", "test system": "paediatric recurrent refractory sarcoma", "conditions": "8 mg", "measurement": "grade 3 Vomiting", "value": "0%"}
{"Structure (SMILES)": "CC1(C)C(C=C(Cl)Cl)C1C(=O)OC(C#N)c1ccc(F)c(Oc2ccccc2)c1 (stereo not drawn)", "test": "measured: CYP2C9", "test system": "human, age 1 year, recombinant human CYP2C9", "conditions": "0.1 µM", "measurement": "enzyme contribution to clearance", "value": "2.07%"}
